# Experimental data collected from several papers.
# Each numbered part is a random draw from the data of one study; scales do not carry over between parts.

# Study 1
# Target: Replicase polyprotein 1ab, nsp13 helicase (rep, Severe acute respiratory syndrome coronavirus 2, UniProt P0DTD1)
# Action: inhibitor
# Concentration: 20 µM
SMILES,inhibition
O=C1NC(=O)/C(=C/c2cccc(C(F)(F)F)c2)S1,4.72%
Cc1cc(C2CCCCC2)n(O)c(=O)c1,-8.59%
NC(=O)CN1C[C@H](O)CC1=O,7.82%
COc1cc([C@H]2Oc3cc([C@H]4Oc5cc(O)cc(O)c5C(=O)[C@@H]4O)ccc3O[C@@H]2CO)ccc1O,8.55%
CCCCc1ncc(/C=C(\Cc2cccs2)C(=O)O)n1Cc1ccc(C(=O)O)cc1,-1.48%
CCCN(C/C=C/I)C1CCc2ccc(O)cc2C1 (stereo not drawn),0.24%
CC(C)Cn1cnc2c(N)nc3ccccc3c21,-2.31%
CN(C)CCCCSC(=N)N,7.08%
O=C1COc2nccc(-c3ccccc3F)c2CN1Cc1cc(C(F)(F)F)cc(C(F)(F)F)c1,7.47%
O=C(O)CCCCCCCCCCCCCCc1ccc(I)cc1,64.5%
NC(N)=NC(N)=Nc1cccc(Cl)c1,4.13%
CC1(C)CC(=O)c2c(C(F)(F)F)nn(-c3ccc(C(N)=O)c(N[C@H]4CC[C@H](OC(=O)CN)CC4)c3)c2C1,7.7%
CCCCN1[C@@H]2CC[C@H]1CC(OC(c1ccc(F)cc1)c1ccc(F)cc1)C2 (stereo partly drawn),3.98%
O=C(O)c1ccc(CN2CCC(CN[C@@H]3C[C@H]3c3ccccc3)CC2)cc1,6.6%
Oc1c(I)cc(I)c(O)c1I,100%
COc1cc(/C=C/c2ccc(O)cc2)cc(OC)c1,2.9%
CCc1cc(C(N)=S)ccn1,-0.89%
CC(=O)N[C@@H](CC(=O)N[C@@H](CCC(=O)O)C(=O)O)C(=O)O,-0.88%
N[C@@H](Cc1cc(-c2ccc(Cl)cc2Cl)cc(CP(=O)(O)O)c1O)C(=O)O,28.9%
Cn1c(=O)c2c(ncn2CC(=O)O)n(C)c1=O,-2.21%
C/C(O)=C(\C#N)C(=O)Nc1ccc(C(F)(F)F)cc1,7.09%
CC[C@H](C)[C@H](NC(=O)[C@H](Cc1ccc(O)cc1)NC(=O)[C@@H](NC(=O)[C@H](CCCNC(=N)N)NC(=O)[C@@H](N)CC(=O)O)C(C)C)C(=O)N[C@@H](Cc1cnc[nH]1)C(=O)N1CCC[C@H]1C(=O)N[C@@H](Cc1ccccc1)C(=O)O,6.08%

# Study 2
# Target: Replicase polyprotein 1ab, main protease (rep, Severe acute respiratory syndrome coronavirus 2, UniProt P0DTD1)
# Observed: enzyme activity
# Action: inhibitor
# Concentration: 20 µM
# Notes: primary screen
Compound,inhibition [%]
O=c1cc(-c2ccc(O)cc2)oc2cc(O)cc(O)c12,94.5
CC(Cc1ccc(O)c(O)c1)C(C)Cc1ccc(O)c(O)c1 (stereo not drawn),99.7
O=C1c2cccc(O)c2C(=O)c2c(O)cc(CO)cc21,51.5
O=C1/C(=C/c2ccc([N+](=O)[O-])cc2)CS(=O)(=O)C/C1=C\c1ccc([N+](=O)[O-])cc1,28.9

# Study 3
# Target: Sal-like protein 4, full length isoform B (SALL4, Homo sapiens, UniProt Q9UJQ4-2, residues 1-616)
# Technique: universal PBM
# Molecule type: double-stranded DNA, one strand shown
# Sample: in vitro
# Concentration: not given
# Notes: 8-mer, flanks averaged, mean of replicates
# Reading: higher = stronger binding
# Construct (chain): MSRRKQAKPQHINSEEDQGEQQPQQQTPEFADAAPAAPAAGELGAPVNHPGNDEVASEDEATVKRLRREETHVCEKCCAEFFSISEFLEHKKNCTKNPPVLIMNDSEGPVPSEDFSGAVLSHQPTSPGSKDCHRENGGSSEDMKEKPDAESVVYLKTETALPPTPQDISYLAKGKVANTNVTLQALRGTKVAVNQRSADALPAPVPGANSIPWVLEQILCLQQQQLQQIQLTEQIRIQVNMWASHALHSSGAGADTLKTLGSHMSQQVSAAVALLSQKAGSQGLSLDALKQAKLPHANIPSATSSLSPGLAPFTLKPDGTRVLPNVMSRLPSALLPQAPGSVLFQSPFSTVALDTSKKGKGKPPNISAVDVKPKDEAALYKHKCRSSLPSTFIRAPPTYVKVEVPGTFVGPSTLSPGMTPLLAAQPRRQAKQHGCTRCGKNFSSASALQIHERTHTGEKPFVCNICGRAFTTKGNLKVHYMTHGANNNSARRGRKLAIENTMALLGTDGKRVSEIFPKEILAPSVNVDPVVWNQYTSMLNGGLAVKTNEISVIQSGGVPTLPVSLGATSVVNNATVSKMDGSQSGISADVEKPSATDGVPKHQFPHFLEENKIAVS
Oligonucleotide,E-score
AGTGGTAT,0.0935
CCGCTAGG,-0.176
CCATCTAG,0.0174
ATAATAGG,0.342
GGTGATAA,0.19
TCCCCCAA,-0.152
CAGGAAAC,-0.0609
AACAGGCG,-0.177

# Study 4
# Target: RNA binding protein fox-1 homolog 2, RRM domain, GST-SBP tag (RBFOX2, Homo sapiens, UniProt O43251-10, residues 100-194)
# Technique: RNA Bind-n-Seq
# Molecule type: RNA
# Sample: in vitro
# Concentration: 365 nM
# Notes: natural RNA segment, single round, ends assumed
# Reference: no-protein control
# Reading: higher = stronger binding
# Constant ends, left off below: GGGAGUUCUACAGUCCGACGAUC … UGGAAUUCUCGGGUGCCAA
# Residues (chain): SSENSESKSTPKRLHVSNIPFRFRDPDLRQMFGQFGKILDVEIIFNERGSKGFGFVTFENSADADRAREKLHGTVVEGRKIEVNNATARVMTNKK
Oligonucleotide,RBNS enrichment (R)
GGAACCUGGAAUCACACAUACCUCGUGGUACUUUUGCCUUAGAUUUUACACUCUCAACAGCCAAGCACUGCCACGGGGCAGCCACAAUGCCAUGCGUGCUCCAGAGCCUA,0.27
GCCUGGCCCUGGCUCCCUCCAACCAGCUGCUCCUGGGACACAGGUGCUCCUGCUUCGGCUCUGUUUCGGCUCACAGGUGUGCAUCACUGGGCUUGGAUUUGCAUUACAUU,1.23
AUUACAAAAUGAAGAUUUAUACCAUUGUGGUUUAAGCUGUACUGAACUAAAUCUGUGGAAUGCAUUGUGAACUGUAAAAGCAAAGUAUCAAUAAAGCUUAUAGACUUAAA,0.778
UCCAACUACUGCUGCAGCAUUUUGGUAAAAACCUGUAGCGAUUCGUUACACUGGGGUGAGAAGAGAUAAGAGAAAUGAAAGAGAAGAGAAAUGGGACAUCUAAUAGUCCC,0.666
AAAACAAAACAUAUUAAUGGUAUUGAAAUGUGUUAGUAGUCUGGCUGUGUGCCCAAAAUUCUGUUUCGCAGCAAAAGUGAAGACCUGUAUGUAAAGAAAGUAUAACAAUU,1.48
UUCAGCUGACUUUGUCUACAAGGAUUAUUAGCAAAUUCUGUAGGAGCAAGCAUGUCUGACCUUAACUUAAUGGAUCCCUUAUUCAAUCAGUGGCUUCUGUCUUUAUGUCU,1.6
UGAGGACUUACCUCCUGAAGAUAUGCUUGUUGCUUUAUGAUAUAUGUAAACUAUUCUUUAGAAAAAUGCAUUCACUCUUUAAUAAAAGUAUGUUUGUGUUAAUAAAGCCA,0.837
GGGGUCUUUUACAGGUCAUGUUGGUUGCUGCUGCUUCUGUCAGGAAGUACCCUAGCUCCACGUACUCCCCGCCCCCCGCCGCCCCCUUCACAACCUUAUGUGUACAUGAC,0.294

# Study 5
# Cell line: HEK-293T/ACE2
# Observed: pseudovirus infection
# Organism: VSV pseudotyped with SARS-CoV-2 spike
# Concentration: concentration not given
# Reference: vehicle-treated
Compound,GFP-positive cells [%]
COc1cc2c(cc1Cc1cccc(Cl)c1F)c(=O)c(C(=O)O)cn2[C@H](CO)C(C)C,120
CCC(CC)[C@H](NC(C)=O)[C@@H]1[C@H](O)[C@@H](C(=O)O)C[C@H]1NC(=N)N.O.O.O,71.8
CNC(=O)c1ccc(N2C(=S)N(c3ccc(C#N)c(C(F)(F)F)c3)C(=O)C2(C)C)cc1F,95.8

# Repeated from above (study 3):
Oligonucleotide,E-score
GGTGATAA,0.19
TCCCCCAA,-0.152
